Assay results from different studies.
Every numbered part comes from another study and shows a few of its results, in no order. Several values in a cell are separate wells, animals, samples, runs or records.
Sequence of UniProt Q99558 (whole entry, looked up): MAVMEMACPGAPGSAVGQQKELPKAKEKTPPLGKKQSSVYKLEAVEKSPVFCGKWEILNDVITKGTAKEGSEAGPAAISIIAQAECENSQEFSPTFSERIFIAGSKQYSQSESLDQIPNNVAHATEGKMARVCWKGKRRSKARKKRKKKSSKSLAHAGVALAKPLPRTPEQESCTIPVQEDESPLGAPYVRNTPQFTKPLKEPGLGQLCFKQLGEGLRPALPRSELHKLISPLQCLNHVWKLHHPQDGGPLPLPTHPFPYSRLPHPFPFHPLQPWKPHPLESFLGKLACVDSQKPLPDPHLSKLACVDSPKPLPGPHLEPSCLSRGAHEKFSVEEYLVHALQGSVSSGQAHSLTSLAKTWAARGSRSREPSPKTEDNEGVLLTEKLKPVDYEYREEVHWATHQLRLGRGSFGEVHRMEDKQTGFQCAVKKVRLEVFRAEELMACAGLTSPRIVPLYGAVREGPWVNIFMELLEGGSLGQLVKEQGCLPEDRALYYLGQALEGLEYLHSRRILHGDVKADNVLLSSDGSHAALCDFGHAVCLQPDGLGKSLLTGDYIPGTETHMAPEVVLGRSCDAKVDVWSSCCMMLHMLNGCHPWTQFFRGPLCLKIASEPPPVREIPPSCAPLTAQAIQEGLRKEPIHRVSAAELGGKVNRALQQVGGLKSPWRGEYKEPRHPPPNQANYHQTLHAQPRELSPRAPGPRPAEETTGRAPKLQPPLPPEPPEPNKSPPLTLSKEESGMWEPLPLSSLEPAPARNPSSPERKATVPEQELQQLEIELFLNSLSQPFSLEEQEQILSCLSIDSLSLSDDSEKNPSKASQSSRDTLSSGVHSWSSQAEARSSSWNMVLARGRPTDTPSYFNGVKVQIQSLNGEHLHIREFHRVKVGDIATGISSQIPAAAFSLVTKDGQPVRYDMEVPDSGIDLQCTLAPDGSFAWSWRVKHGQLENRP
Sequence of UniProt P11802 (whole entry, looked up): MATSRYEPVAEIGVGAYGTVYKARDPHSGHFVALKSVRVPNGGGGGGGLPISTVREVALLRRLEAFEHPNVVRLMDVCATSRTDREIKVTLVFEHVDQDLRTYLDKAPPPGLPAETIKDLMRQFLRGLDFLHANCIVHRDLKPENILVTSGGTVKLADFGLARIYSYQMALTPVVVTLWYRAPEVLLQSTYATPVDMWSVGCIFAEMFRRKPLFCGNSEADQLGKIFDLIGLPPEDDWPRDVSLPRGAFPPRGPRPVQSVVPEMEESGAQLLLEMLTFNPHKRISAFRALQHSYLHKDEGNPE
Sequence of UniProt P07948 (whole entry, looked up): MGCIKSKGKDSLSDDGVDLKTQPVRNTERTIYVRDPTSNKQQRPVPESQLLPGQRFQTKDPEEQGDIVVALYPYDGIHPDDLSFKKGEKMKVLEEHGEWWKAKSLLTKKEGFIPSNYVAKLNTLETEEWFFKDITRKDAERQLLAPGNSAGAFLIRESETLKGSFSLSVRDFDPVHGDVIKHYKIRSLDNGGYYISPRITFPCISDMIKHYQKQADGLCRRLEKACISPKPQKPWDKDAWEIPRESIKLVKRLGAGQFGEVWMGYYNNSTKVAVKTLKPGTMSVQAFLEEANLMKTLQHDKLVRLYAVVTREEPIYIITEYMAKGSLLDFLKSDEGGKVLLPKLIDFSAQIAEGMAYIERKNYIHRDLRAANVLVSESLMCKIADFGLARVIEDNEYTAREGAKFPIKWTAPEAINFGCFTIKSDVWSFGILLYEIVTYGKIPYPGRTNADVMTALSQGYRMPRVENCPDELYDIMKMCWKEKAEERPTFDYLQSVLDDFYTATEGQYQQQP
Sequence of UniProt O96017 (whole entry, looked up): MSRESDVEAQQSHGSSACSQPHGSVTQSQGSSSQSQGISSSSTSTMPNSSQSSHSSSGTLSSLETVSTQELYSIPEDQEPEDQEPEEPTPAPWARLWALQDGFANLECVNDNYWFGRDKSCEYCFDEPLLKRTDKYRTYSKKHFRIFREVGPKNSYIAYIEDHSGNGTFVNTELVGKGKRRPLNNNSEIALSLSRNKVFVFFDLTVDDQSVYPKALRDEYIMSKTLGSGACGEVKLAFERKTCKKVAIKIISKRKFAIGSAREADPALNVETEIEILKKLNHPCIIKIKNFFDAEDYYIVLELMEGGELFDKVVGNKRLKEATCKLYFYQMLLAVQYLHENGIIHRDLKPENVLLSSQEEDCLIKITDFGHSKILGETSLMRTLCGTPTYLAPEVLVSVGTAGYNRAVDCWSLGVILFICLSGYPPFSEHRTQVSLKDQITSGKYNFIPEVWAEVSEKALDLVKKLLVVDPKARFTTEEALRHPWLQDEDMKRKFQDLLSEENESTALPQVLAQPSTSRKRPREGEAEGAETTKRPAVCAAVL
Sequence of UniProt Q15831 (whole entry, looked up): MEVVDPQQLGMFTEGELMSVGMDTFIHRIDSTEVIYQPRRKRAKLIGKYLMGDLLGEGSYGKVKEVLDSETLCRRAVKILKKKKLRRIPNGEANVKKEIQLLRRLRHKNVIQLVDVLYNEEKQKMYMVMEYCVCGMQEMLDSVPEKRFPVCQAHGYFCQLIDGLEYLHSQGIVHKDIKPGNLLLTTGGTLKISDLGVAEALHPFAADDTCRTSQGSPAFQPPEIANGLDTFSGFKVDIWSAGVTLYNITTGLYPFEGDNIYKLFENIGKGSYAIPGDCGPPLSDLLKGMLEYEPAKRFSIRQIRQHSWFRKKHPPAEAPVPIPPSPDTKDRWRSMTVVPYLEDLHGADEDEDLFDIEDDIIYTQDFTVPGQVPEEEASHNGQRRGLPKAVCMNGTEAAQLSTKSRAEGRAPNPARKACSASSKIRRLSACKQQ
Sequence of UniProt Q2M2I8 (whole entry, looked up): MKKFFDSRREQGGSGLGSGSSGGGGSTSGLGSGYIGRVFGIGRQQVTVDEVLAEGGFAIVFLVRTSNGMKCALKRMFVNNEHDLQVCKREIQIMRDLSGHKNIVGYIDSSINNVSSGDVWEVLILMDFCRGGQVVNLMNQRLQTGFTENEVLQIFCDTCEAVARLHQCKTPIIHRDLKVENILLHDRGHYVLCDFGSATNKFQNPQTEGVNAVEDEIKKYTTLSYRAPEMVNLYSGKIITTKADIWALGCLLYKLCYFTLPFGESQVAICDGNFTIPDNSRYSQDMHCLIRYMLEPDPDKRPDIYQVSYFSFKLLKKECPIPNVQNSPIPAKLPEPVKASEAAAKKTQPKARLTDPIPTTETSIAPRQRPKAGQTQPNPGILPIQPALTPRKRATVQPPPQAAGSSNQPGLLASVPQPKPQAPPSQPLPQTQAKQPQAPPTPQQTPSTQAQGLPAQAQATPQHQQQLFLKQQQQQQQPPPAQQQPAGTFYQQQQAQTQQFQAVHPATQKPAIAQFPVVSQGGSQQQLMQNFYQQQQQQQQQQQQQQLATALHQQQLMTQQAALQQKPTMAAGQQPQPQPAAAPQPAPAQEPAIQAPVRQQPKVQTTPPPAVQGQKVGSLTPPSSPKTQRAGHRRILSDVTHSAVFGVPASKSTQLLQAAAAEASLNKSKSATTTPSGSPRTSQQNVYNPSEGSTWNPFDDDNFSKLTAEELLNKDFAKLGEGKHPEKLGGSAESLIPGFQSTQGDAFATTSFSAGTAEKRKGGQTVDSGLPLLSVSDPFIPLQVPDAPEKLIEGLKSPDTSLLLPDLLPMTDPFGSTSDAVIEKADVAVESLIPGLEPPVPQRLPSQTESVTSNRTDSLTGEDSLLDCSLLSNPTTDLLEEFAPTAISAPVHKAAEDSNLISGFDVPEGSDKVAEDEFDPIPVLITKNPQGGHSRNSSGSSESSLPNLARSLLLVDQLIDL
Sequence of UniProt Q8TD08 (whole entry, looked up): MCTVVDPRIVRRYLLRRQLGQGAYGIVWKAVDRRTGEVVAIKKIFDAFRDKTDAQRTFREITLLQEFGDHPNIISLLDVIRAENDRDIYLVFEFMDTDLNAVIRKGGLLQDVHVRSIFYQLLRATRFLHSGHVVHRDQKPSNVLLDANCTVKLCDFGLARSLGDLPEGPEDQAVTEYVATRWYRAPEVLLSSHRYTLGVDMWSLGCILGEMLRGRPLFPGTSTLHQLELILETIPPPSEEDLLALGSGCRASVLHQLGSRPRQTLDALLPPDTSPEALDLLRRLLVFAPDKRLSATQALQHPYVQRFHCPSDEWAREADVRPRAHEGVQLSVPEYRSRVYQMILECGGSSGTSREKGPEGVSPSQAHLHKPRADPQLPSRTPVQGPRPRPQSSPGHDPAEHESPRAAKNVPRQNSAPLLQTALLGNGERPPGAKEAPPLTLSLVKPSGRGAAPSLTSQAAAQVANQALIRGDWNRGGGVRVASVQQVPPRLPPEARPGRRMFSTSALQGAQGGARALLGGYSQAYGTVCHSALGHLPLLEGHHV
Sequence of UniProt O15111 (whole entry, looked up): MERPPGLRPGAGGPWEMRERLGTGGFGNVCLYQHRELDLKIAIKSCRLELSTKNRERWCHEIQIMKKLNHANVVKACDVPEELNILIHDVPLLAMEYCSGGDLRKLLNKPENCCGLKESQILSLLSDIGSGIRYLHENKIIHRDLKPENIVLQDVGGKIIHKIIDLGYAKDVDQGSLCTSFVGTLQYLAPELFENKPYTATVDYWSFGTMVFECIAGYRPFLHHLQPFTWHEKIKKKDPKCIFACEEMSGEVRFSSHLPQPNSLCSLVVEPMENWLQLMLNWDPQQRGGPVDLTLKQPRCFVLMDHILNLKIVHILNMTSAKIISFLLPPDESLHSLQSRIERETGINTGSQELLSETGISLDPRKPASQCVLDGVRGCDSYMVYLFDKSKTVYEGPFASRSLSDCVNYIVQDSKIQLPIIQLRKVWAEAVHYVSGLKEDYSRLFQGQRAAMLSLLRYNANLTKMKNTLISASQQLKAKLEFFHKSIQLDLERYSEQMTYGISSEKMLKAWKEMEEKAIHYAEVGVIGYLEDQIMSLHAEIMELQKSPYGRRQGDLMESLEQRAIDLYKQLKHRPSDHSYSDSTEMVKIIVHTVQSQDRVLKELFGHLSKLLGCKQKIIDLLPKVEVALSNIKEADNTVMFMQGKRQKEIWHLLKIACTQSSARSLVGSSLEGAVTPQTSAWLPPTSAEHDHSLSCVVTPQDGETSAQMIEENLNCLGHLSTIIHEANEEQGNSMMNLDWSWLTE

Set 1 — Compound: CCOc1ccc(Nc2c3c(nc4ccccc24)CCC3)cc1; organism: Leishmania donovani; strain: DD8
| assay | test system | setting | inhibition |
| --- | --- | --- | --- |
| parasite viability, resazurin | promastigotes | 3.33 µM | 64% and 60% and 62% |
| parasite killing | promastigotes | 0.33 µM, 24 h | 7% and 8% and 10% |
| parasite killing | promastigotes | 0.066 µM, 24 h | 2% and 4% |
| parasite killing | intracellular amastigotes | 4 µM, 24 h | 30% and 28% and 35% |
| parasite killing | promastigotes | 1.66 µM, 48 h | 40% and 41% and 42% |
| parasite killing | intracellular amastigotes | 4 µM, 48 h | 84% and 79% and 74% |
| parasite viability, resazurin | promastigotes | 0.066 µM | -8% and -4% and -6% and 2% and -5% |

Set 2 — technique: phase 2a clinical trial; host: idiopathic pulmonary fibrosis patients
SMILES: CC(C)n1cnc(-c2ccc(F)cc2)c1-c1ncc(C(=O)Nc2ccc(N3CCN(C)CC3)cc2)[nH]1
| assay | setting | how to read | patients with TEAEs |
| --- | --- | --- | --- |
| item: investigations (SOC) | dose not given, grade 2, all drug arms | relative to: patients | 3% |
| item: reproductive and breast disorders | dose not given, grade 4, all drug arms | – | 0% |
| item: reproductive and breast disorders | 60 mg once daily, grade 1 maximum intensity | – | 0% |
| item: investigations (SOC) | dose not given, grade 3, all drug arms | relative to: patients | 1% |
| item: neoplasms (SOC) | dose not given, grade 3, all drug arms | – | 0% |
| item: gamma-glutamyltransferase increased | 60 mg once daily, grade 2 maximum intensity | relative to: patients | 1% |
| item: oral herpes | oral, dose not given, grade 1, all drug arms | relative to: patients | 1% |
| item: chest discomfort | dose not given, grade 2, all drug arms | relative to: patients | 1% |
| item: reproductive and breast disorders | dose not given, grade 1, all drug arms | relative to: patients | 1% |
| item: neoplasms (SOC) | 60 mg once daily, grade 3 maximum intensity | – | 0% |
| item: chest discomfort | 60 mg once daily, grade 1 maximum intensity | relative to: patients | 1% |
| item: reproductive and breast disorders | dose not given, grade 3, all drug arms | – | 0% |
| item: infections and infestations | 60 mg once daily, grade 1 maximum intensity | relative to: patients | 1% |

Set 3 — observed: enzyme activity; mode: inhibitor; tested at: 0.5 µM; relative to: control
SMILES: CSc1nc(-c2ccnc(N[C@@H](C)c3ccccc3)c2)c(-c2ccc(F)cc2)[nH]1 (racemic)
| target | remaining activity |
| --- | --- |
| Serine/threonine-protein kinase OSR1 (OXSR1, Homo sapiens, UniProt O95747) | 88.2% |
| Serine/threonine-protein kinase Chk2 (CHEK2, Homo sapiens, UniProt O96017) | 94.2% |
| Serine/threonine-protein kinase Nek2 (NEK2, Homo sapiens, UniProt P51955) | 89.9% |
| cAMP-dependent protein kinase catalytic subunit alpha (PRKACA, Homo sapiens, UniProt P17612) | 96% |
| Serine/threonine-protein kinase 10 (STK10, Homo sapiens, UniProt O94804) | 86.8% |
| Inhibitor of nuclear factor kappa-B kinase subunit epsilon (IKBKE, Homo sapiens, UniProt Q14164) | 84% |
| STE20/SPS1-related proline-alanine-rich protein kinase (STK39, Homo sapiens, UniProt Q9UEW8) | 95% |
| TGF-beta receptor type-1 (TGFBR1, Homo sapiens, UniProt P36897) | 93.3% |
| Serine/threonine-protein kinase STK11 (STK11, Homo sapiens, UniProt Q15831) | 95.4% |
| Tyrosine-protein kinase Lyn, isoform B (LYN, Homo sapiens, UniProt P07948) | 89.4% |
| Mitogen-activated protein kinase 9 (MAPK9, Homo sapiens, UniProt P45984) | 31.1% |
| Cyclin-dependent kinase 5, with p25 (CDK5, Homo sapiens, UniProt Q00535) | 76.2% |
| Protein kinase C beta type, isoform beta-I (PRKCB, Homo sapiens, UniProt P05771) | 92.2% |
| Mitogen-activated protein kinase kinase kinase 3 (MAP3K3, Homo sapiens, UniProt Q99759) | 80% |
| Cyclin-dependent kinase 4, with cyclin D1 (CDK4, Homo sapiens, UniProt P11802) | 109% |
| cGMP-dependent protein kinase 1, isoform beta (PRKG1, Homo sapiens, UniProt Q13976) | 105% |
| Calcium/calmodulin-dependent protein kinase kinase 2 (CAMKK2, Homo sapiens, UniProt Q96RR4) | 84% |
| Death-associated protein kinase 1 (DAPK1, Homo sapiens, UniProt P53355) | 101% |
| G protein-coupled receptor kinase 3 (GRK3, Homo sapiens, UniProt P35626) | 96.4% |
| TGF-beta receptor type-2 (TGFBR2, Homo sapiens, UniProt P37173) | 96.5% |
| Calcium/calmodulin-dependent protein kinase type II subunit delta (CAMK2D, Homo sapiens, UniProt Q13557) | 99.3% |

Set 4 — tested at: 0.1 µM
Structure (SMILES): COCCOc1nc(-c2ccc(Cl)nc2)nc2c1CN(C(=O)c1ncn3ccccc13)CC2
| target | assay | remaining binding |
| --- | --- | --- |
| Mitogen-activated protein kinase kinase kinase 1 (MAP3K1, Homo sapiens, UniProt Q13233) | cell-free assay, competition with immobilised ligand | 100% |
| RAF proto-oncogene serine/threonine-protein kinase (RAF1, Homo sapiens, UniProt P04049) | cell-free assay, competition with immobilised ligand | 97% |
| Calcium/calmodulin-dependent protein kinase type 1D (CAMK1D, Homo sapiens, UniProt Q8IU85) | cell-free assay, competition with immobilised ligand | 100% |
| Serine/threonine-protein kinase pim-3 (PIM3, Homo sapiens, UniProt Q86V86) | cell-free assay, competition with immobilised ligand | 100% |
| Mitogen-activated protein kinase kinase kinase 14 (MAP3K14, Homo sapiens, UniProt Q99558) | cell-free assay, competition with immobilised ligand | 100% |
| Testis-specific serine/threonine-protein kinase 3 (TSSK3, Homo sapiens, UniProt Q96PN8) | cell-free assay, competition with immobilised ligand | 100% |
| Serine/threonine-protein kinase PAK 4 (PAK4, Homo sapiens, UniProt O96013) | cell-free assay, competition with immobilised ligand | 100% |
| Tyrosine-protein kinase ABL1, non-phosphorylated (ABL1, Homo sapiens, UniProt P00519) | cell-free assay, competition with immobilised ligand | 60% |
| Serine/threonine-protein kinase WNK3 (WNK3, Homo sapiens, UniProt Q9BYP7) | cell-free assay, competition with immobilised ligand | 100% |
| Leucine-rich repeat serine/threonine-protein kinase 2 (LRRK2, Homo sapiens, UniProt Q5S007, G2019S) | cell-free assay, competition with immobilised ligand | 100% |
| Mitogen-activated protein kinase 10 (MAPK10, Homo sapiens, UniProt P53779) | cell-free assay, competition with immobilised ligand | 91% |
| Mitotic checkpoint serine/threonine-protein kinase BUB1 (BUB1, Homo sapiens, UniProt O43683) | cell-free assay, competition with immobilised ligand | 82% |
| Serine/threonine-protein kinase 33 (STK33, Homo sapiens, UniProt Q9BYT3) | cell-free assay, competition with immobilised ligand | 53% |
| AP2-associated protein kinase 1 (AAK1, Homo sapiens, UniProt Q2M2I8) | binding | 100% |
| Serine/threonine-protein kinase LATS1 (LATS1, Homo sapiens, UniProt O95835) | cell-free assay, competition with immobilised ligand | 70% |
| Serine/threonine-protein kinase PAK 2 (PAK2, Homo sapiens, UniProt Q13177) | cell-free assay, competition with immobilised ligand | 100% |
| Serine/threonine-protein kinase VRK2 (VRK2, Homo sapiens, UniProt Q86Y07) | cell-free assay, competition with immobilised ligand | 91% |
| Inhibitor of nuclear factor kappa-B kinase subunit alpha (CHUK, Homo sapiens, UniProt O15111) | cell-free assay, competition with immobilised ligand | 100% |
| Ephrin type-A receptor 3 (EPHA3, Homo sapiens, UniProt P29320) | cell-free assay, competition with immobilised ligand | 96% |
| Serine/threonine-protein kinase TAO2 (TAOK2, Homo sapiens, UniProt Q9UL54) | cell-free assay, competition with immobilised ligand | 99% |
| Casein kinase I isoform gamma-2 (CSNK1G2, Homo sapiens, UniProt P78368) | cell-free assay, competition with immobilised ligand | 94% |
| Serine/threonine-protein kinase PRP4 homolog (PRPF4B, Homo sapiens, UniProt Q13523) | cell-free assay, competition with immobilised ligand | 100% |
| Activin receptor type-2B (ACVR2B, Homo sapiens, UniProt Q13705) | cell-free assay, competition with immobilised ligand | 93% |
| Mitogen-activated protein kinase 15 (MAPK15, Homo sapiens, UniProt Q8TD08) | cell-free assay, competition with immobilised ligand | 100% |
| Tyrosine-protein kinase ABL1, non-phosphorylated (ABL1, Homo sapiens, UniProt P00519, H396P) | cell-free assay, competition with immobilised ligand | 70% |

For quick reference, copied from above (set 3):
| target | remaining activity |
| --- | --- |
| Mitogen-activated protein kinase 9 (MAPK9, Homo sapiens, UniProt P45984) | 31.1% |
| Cyclin-dependent kinase 5, with p25 (CDK5, Homo sapiens, UniProt Q00535) | 76.2% |
| Protein kinase C beta type, isoform beta-I (PRKCB, Homo sapiens, UniProt P05771) | 92.2% |
| Mitogen-activated protein kinase kinase kinase 3 (MAP3K3, Homo sapiens, UniProt Q99759) | 80% |
| Cyclin-dependent kinase 4, with cyclin D1 (CDK4, Homo sapiens, UniProt P11802) | 109% |
| cGMP-dependent protein kinase 1, isoform beta (PRKG1, Homo sapiens, UniProt Q13976) | 105% |
| Calcium/calmodulin-dependent protein kinase kinase 2 (CAMKK2, Homo sapiens, UniProt Q96RR4) | 84% |
| Death-associated protein kinase 1 (DAPK1, Homo sapiens, UniProt P53355) | 101% |
